Measurements of several laboratories.
Compare with care: the assays were run in different laboratories. ± gives the spread as reported.
USP3 ZnF-UBD domain: Ubiquitin carboxyl-terminal hydrolase 3, ZnF-UBD domain (USP3, Homo sapiens, UniProt Q9Y6I4)
Sequence of UniProt Q9Y6I4 (whole entry, looked up): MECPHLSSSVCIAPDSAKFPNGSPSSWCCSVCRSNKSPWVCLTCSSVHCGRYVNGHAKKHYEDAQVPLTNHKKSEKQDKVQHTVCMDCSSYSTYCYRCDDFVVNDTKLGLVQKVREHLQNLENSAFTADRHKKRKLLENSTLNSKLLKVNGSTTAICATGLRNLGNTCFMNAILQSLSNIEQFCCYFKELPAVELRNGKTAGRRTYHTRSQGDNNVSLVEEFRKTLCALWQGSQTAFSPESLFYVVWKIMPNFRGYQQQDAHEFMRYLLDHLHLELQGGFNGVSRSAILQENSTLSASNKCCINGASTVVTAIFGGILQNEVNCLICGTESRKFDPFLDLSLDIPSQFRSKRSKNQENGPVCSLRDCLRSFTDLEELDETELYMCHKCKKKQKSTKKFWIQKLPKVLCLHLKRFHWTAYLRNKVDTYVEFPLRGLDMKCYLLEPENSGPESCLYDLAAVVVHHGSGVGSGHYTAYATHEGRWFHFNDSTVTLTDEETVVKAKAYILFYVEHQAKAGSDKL
uncharacterized protein: uncharacterized protein (Bos taurus, UniProt E1BM68)
SMARCA4: SWI/SNF-related matrix-associated actin-dependent regulator of chromatin subfamily A member 4 (SMARCA4, Homo sapiens, UniProt P51532)
Sequence of UniProt P51532 (whole entry, looked up): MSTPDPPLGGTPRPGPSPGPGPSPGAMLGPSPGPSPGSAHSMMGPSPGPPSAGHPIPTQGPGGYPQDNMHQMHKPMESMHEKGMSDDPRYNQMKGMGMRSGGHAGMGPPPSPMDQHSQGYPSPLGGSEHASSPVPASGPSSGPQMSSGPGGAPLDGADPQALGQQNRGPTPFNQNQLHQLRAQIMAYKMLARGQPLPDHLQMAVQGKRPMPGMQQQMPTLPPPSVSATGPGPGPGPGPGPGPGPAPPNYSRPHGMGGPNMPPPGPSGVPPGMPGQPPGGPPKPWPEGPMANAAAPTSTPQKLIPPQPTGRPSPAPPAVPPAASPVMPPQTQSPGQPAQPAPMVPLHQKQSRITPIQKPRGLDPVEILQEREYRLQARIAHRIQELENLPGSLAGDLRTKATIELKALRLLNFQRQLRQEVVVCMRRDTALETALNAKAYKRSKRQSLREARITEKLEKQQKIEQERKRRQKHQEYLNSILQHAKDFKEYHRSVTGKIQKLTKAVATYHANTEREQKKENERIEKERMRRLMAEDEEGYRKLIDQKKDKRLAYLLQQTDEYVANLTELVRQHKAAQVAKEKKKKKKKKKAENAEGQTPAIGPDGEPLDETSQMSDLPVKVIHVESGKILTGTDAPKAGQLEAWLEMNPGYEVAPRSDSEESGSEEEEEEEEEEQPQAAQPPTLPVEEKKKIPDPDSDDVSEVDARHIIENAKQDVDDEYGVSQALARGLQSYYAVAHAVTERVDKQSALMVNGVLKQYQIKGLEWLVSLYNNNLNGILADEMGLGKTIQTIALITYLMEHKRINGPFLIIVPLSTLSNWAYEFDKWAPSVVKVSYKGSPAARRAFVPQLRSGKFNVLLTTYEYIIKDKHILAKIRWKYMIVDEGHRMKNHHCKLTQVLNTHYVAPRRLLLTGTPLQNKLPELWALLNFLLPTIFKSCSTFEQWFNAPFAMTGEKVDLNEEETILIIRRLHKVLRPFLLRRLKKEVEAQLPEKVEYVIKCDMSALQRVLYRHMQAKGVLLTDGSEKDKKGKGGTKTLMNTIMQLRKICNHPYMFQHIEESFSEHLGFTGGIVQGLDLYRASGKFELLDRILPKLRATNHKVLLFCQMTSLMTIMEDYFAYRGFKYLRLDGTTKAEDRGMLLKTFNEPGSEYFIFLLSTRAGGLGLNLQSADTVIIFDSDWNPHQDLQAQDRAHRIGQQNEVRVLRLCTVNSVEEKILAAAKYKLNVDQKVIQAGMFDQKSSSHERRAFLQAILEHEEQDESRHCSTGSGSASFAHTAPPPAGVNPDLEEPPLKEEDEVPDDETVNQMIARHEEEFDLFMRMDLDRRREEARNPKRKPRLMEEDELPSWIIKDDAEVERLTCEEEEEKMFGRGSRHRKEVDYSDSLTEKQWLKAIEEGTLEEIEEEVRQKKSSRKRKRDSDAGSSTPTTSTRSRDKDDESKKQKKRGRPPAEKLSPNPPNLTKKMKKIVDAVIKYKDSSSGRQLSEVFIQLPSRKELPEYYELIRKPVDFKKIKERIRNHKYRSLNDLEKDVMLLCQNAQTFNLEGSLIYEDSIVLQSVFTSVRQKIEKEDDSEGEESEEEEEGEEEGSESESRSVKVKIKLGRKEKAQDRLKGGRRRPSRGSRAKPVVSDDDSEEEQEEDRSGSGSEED
Sequence of UniProt Q14012 (whole entry, looked up): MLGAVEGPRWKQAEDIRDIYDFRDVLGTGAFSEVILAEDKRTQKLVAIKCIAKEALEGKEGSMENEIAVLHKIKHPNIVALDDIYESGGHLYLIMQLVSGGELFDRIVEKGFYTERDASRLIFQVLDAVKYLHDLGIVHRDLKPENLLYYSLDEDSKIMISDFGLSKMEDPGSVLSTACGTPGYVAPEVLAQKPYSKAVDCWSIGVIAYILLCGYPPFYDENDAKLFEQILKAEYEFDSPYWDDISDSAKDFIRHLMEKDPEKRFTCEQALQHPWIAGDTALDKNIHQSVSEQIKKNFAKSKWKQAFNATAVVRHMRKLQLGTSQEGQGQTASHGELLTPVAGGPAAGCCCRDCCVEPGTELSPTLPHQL
Sequence of UniProt P23204 (whole entry, unmodified, looked up): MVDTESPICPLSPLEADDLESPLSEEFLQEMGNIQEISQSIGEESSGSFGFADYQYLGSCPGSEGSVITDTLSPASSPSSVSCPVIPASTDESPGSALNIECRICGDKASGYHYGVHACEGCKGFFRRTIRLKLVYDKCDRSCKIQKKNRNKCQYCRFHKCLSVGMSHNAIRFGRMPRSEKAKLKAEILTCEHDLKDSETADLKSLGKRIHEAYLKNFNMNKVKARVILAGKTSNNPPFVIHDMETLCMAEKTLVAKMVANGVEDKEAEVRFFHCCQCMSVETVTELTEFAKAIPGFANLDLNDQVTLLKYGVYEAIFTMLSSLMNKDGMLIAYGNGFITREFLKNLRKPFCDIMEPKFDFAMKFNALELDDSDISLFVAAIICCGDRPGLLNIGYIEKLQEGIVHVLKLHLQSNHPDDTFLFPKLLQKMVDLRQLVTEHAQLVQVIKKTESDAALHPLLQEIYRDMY
Sequence of UniProt Q8N884 (whole entry, looked up): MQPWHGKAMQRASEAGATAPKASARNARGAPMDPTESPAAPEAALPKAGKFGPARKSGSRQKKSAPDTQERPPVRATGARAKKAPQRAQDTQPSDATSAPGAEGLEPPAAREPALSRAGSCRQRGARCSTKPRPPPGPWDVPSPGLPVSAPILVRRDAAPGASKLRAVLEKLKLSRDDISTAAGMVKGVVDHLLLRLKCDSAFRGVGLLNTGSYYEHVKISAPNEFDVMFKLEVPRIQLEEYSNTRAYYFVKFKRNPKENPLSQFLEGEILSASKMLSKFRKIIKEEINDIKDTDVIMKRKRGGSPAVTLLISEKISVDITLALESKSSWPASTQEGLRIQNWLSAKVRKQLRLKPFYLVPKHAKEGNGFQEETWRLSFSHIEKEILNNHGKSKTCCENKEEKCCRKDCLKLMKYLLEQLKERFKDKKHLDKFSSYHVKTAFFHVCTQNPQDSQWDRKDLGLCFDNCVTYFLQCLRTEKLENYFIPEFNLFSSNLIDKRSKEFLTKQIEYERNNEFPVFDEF
Sequence of UniProt P48736 (whole entry, looked up): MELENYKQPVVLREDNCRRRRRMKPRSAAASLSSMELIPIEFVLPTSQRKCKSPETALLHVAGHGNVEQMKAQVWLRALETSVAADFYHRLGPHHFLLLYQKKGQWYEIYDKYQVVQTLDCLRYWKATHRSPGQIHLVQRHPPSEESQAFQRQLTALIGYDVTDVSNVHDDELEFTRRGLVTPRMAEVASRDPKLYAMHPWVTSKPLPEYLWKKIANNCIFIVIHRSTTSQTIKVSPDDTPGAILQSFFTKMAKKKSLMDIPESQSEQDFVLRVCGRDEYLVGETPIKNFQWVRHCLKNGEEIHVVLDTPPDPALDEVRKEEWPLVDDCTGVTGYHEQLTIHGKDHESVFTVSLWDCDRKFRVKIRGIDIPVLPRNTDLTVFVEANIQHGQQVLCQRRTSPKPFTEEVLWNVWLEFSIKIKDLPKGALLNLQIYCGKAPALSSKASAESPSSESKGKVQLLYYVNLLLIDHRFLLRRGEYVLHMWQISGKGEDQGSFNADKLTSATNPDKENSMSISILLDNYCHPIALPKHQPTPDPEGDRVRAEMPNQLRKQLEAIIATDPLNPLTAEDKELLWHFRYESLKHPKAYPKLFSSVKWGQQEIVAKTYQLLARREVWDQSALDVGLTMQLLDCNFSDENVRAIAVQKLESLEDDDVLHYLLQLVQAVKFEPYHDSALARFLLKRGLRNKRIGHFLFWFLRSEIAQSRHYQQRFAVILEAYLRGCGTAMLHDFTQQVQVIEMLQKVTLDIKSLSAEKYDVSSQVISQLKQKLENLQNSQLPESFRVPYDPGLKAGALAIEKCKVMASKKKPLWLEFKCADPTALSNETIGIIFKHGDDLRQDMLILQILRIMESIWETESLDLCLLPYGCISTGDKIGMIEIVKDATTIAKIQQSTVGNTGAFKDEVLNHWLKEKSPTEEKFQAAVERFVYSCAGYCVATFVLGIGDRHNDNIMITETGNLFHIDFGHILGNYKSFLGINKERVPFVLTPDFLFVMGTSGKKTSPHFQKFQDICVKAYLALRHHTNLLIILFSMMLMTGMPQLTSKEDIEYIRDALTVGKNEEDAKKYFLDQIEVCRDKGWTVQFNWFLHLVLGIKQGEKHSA

`O=C(O)COc1cnc2ccccc2n1` gave a Kd of greater than 1000 µM (USP3 ZnF-UBD domain).
`CCc1nccnc1CC` gave an EC50 of 125 ± 33.9 µM (uncharacterized protein; cAMP level, agonist, cAMP luminescence; HEK293 cells).
`O=C(NCC1CCOCC1)c1ccc(C2CCCCC2)cc1` gave a hepatic clearance of 40 mL/min/kg (liver microsome stability; cynomolgus liver microsomes; 1 µM).
`CCc1nccnc1C` has an EC50 of 315 ± 18.4 µM (uncharacterized protein; cAMP level, agonist, cAMP luminescence; HEK293 cells).
For `Cc1cc(NC(=O)CCC(=O)O)nn1C`, the Kd was 201 µM (USP3 ZnF-UBD domain).
For `CCn1c(-c2nc3cc(C(=O)N4CCC[C@@H](N)C4)cc(OC)c3n2C)cc2cccnc21`, the IC50 was greater than 31.6 µM (PIK3CG (Homo sapiens, UniProt P48736); TR-FRET).
For `CC[C@@H]1[C@H](F)C(=O)N[C@@H]1COc1nccc2cc(C(N)=O)c(OC)cc12`, the IC50 was greater than 5 µM (CAMK1 (Homo sapiens, UniProt Q14012); ATP-site binding, ActivX KiNativ profiling; THP-1 cell lysate; Lys1 CaMK1a probe site).
`Cc1nn(-c2nc3ccccc3[nH]2)c(O)c1C(c1ccccn1)c1c(C)nn(-c2nc3ccccc3[nH]2)c1O` gave an EC50 of 7.4 ± 0.9 µM (Cyclic GMP-AMP synthase, catalytic domain; with DNA (CGAS, Homo sapiens, UniProt Q8N884); cGAS-DNA condensate disruption; concentration not given, together with: Cy3-labelled DNA).
`Cc1cc(Nc2ccc(S(F)(F)(F)(F)F)cc2)n2nc(C(C)(F)F)nc2n1`: “patients with QTcB above threshold” 0% (Plasmodium vivax; 12-lead Holter ECG; human malaria patients; oral, 600 mg, QTc above 500 ms).
For `Cc1cnc(C)cn1`, the EC50 was 1190 ± 195 µM (uncharacterized protein; cAMP level, agonist, cAMP luminescence; HEK293 cells).
`O=C(O)CCc1ccc2c(c1)OCO2` gave a Kd of greater than 1000 µM (USP3 ZnF-UBD domain).
For `CC/C=C\C/C=C\C/C=C\C/C=C\C/C=C\C/C=C\CCC(=O)SCCNC(=O)CCNC(=O)[C@H](O)C(C)(C)COP(=O)(O)OP(=O)(O)OC[C@H]1O[C@@H](n2cnc3c(N)ncnc32)[C@H](O)[C@@H]1OP(=O)(O)O`, the Ki was 0.029 ± 0.003 µM (Ppara (Mus musculus, UniProt P23204, F272I)).
`Cc1ncsc1-c1ccc(CNC(=O)[C@@H]2C[C@@H](O)CN2C(=O)[C@@H](NC(=O)C2(F)CC2)C(C)(C)C)c(OCCOc2ccc(CN3CCN(c4cc(-c5ccccc5O)nnc4N)CC3)cc2)c1` gave a DC50 of 0.0131 µM (SMARCA4; degrader, immunofluorescence; SW1573).
For `O=C(O)CCn1cccn1`, the Kd was greater than 1000 µM (USP3 ZnF-UBD domain).
`CCc1ncc(C)nc1CC` gave an EC50 of 270 ± 55.2 µM (Olfactory receptor (Mus musculus, UniProt Q8VGQ8); cAMP, agonist; HEK293 transfected with Olfactory receptor).
For `Cn1cc(-c2ccc(-c3cncc(Cl)c3N3CCC4(CCNC4=O)CC3)cc2)cn1`, “log2 fold change” read 2.53 (COLO 205; gene expression, microarray, measured: IFIT1 mRNA; concentration not given, 6 h; reference: untreated cells).
`Nc1nsc(C(=O)NCC2CCCCC2)c1C#Cc1ccccc1` gave an IC50 of greater than 100 µM (Lysine--tRNA ligase, chloroplastic/mitochondrial (OVA5, Arabidopsis thaliana, UniProt Q9LJE2); enzyme activity, inhibitor).
The remaining activity of `CCCOc1ccc(OC)c(F)c1C(=O)c1ccc(C(=O)N[C@@H]2CNC[C@H]2NC(=O)c2ccc3[nH]ncc3c2)cc1` is reported as 2% (AMPK (rat); kinase activity; 10 µM).
`Nc1nnc(-c2ccccc2O)cc1N1CC2CCC(C1)N2c1ccnc(F)c1` has a DC50 of greater than 1 µM (SMARCA4; degrader, immunofluorescence; SW1573).
`Nc1nnc(-c2ccccc2O)cc1N1CCN(Cc2ccc(OCCOCCNc3cccc4c3C(=O)N(C3CCC(=O)NC3=O)C4=O)c(F)c2)CC1` (stereo not drawn) gave a DC50 of greater than 10 µM (SMARCA4; degrader, immunoblot; SMARCA4 wild-type lung cancer cells; 96 h, median of twelve cell lines).
The Ki of `Cc1ccc([C@H]2C[C@@H]2COc2cc(NCc3nnc(C)s3)nc(C)n2)nc1` is reported as 46.8 µM (PDE5A (Homo sapiens, UniProt O76074); enzyme activity, inhibitor, IMAP fluorescence polarization; together with: cGMP).
The Kd of `O=C(O)Cc1nc2ccccc2[nH]1` is reported as greater than 1000 µM (USP3 ZnF-UBD domain).
`CN(Cc1cccnc1)C(=O)c1ccc(C2CCCCC2)cc1` has a hepatic clearance of 18 mL/min/kg (hepatocyte stability; cryopreserved human hepatocytes; 1 µM).
With `N#Cc1c2n(c3c(=O)n(CC(=O)O)cnc13)CCCC2` the Kd was 603 µM (USP3 ZnF-UBD domain).
For `CCCCCCCCCCCCCCCCCCc1ccc(O)cc1`, the Kb was 16200 µM (Albumin (ALB, Bos taurus, UniProt P02769); modified Stern–Volmer; PBS; 27 °C).
`CC(C)C[C@H](NC(=O)C[C@H](O)[C@H](CC(C)C)NC(=O)[C@H](Cc1c[nH]cn1)NC(=O)CNC(=O)[C@@H](NC(=O)[C@H](C)NC(=O)[C@H](Cc1c[nH]c2ccccc12)NC(=O)[C@H](CCC(N)=O)NC(=O)[C@@H](Cc1ccccc1)NC(=O)COCCOCCNC(=O)CCC(C(=O)O)N1CCN(CC(=O)O)CCN(CC(=O)O)CCN(CC(=O)O)CC1)C(C)C)C(N)=O` (stereo partly drawn) [lutetium-177 labelled] has a tissue uptake of 0.97 ± 0.19 %ID/g (female BALB/c nu/nu mice, liver; intravenous, 50 pmol, 1 h).
`O=C(O)Cc1nc2ccccc2o1` gave a Kd of greater than 1000 µM (USP3 ZnF-UBD domain).

For quick reference, copied from above:
`Cc1ncsc1-c1ccc(CNC(=O)[C@@H]2C[C@@H](O)CN2C(=O)[C@@H](NC(=O)C2(F)CC2)C(C)(C)C)c(OCCOc2ccc(CN3CCN(c4cc(-c5ccccc5O)nnc4N)CC3)cc2)c1` gave a DC50 of 0.0131 µM (SMARCA4; degrader, immunofluorescence; SW1573).
`Cc1cc(Nc2ccc(S(F)(F)(F)(F)F)cc2)n2nc(C(C)(F)F)nc2n1`: “patients with QTcB above threshold” 0% (Plasmodium vivax; 12-lead Holter ECG; human malaria patients; oral, 600 mg, QTc above 500 ms).
